Published values of several laboratories.
Each line is one published result; not all experiments were run side by side.

OB(O)c1cnn(-c2cccc(Cl)c2)c1 gave an MIC of greater than 2050 µg/mL (Enterobacter cloacae; bacterial growth; AmpC overproducer clinical isolate; without cefotaxime).
[O-][N+]1=C(c2ccc(Cl)cc2)C2=NCCCN2c2ccccc21 gave an MIC of 0.06 to 1 µg/mL (Prevotella spp.).
For CC[C@H](C)[C@H](NC(=O)[C@H](CCCNC(=N)N)NC(=O)[C@H](CO)NC(=O)[C@H](Cc1ccc(O)cc1)NC(=O)[C@@H](NC(=O)[C@@H](NC(=O)[C@H](C)NC(=O)CNC(=O)[C@H](CCCCN)NC(=O)[C@H](CCCCN)NC(=O)CCNC(=O)CCCCCNC(=O)[C@H](CCCNC(=N)N)NC(=O)CCCCCNC(=O)[C@H](CCCNC(=N)N)NC(=O)[C@H](CCCNC(=N)N)NC(=O)CCCCCNC(=O)[C@H](CCCNC(=N)N)NC(=O)[C@H](CCCNC(=N)N)NC(=O)CCCCCNC(=O)[C@H](CCCNC(=N)N)NC(=O)[C@H](CCCNC(=N)N)NC(=O)CCCCCNC(=O)[C@@H](N)CCCNC(=N)N)C(C)C)[C@@H](C)O)C(=O)N[C@@H](CO)C(=O)NCC(=O)N[C@@H](CCC(N)=O)C(=O)N[C@@H](Cc1ccc(O)cc1)C(=O)N[C@@H](CCCCN)C(=O)O, the MIC was 6 µM (Escherichia coli; ATCC 25922).
With C[N+]1=C2C(c3ccc([N+](=O)[O-])cc3)=[N+]([O-])c3ccccc3N2CCC1 the MIC was 0.06 to 2 µg/mL (Prevotella spp.).
CC(C)C[C@H](NC(=O)[C@H](CCCCN)NC(=O)[C@H](C)NC(=O)[C@H](CC(C)C)NC(=O)[C@H](CCCCN)NC(=O)[C@H](CCC(N)=O)NC(=O)[C@H](CCCCN)NC(=O)[C@H](CC(C)C)NC(=O)[C@H](CCCCN)NC(=O)[C@H](CCC(N)=O)NC(=O)[C@H](CC(C)C)NC(=O)[C@H](CCCCN)NC(=O)[C@H](C)NC(=O)[C@H](CCCCN)NC(=O)[C@H](CC(C)C)NC(=O)[C@H](CCCCN)NC(=O)[C@H](C)NC(=O)[C@H](CC(C)C)NC(=O)[C@H](CCCCN)NC(=O)[C@H](CCC(N)=O)NC(=O)[C@@H](N)CCCCN)C(N)=O gave an MIC of 6.2 µM (Salmonella enterica; broth microdilution; ATCC 700720; 24 h).
COc1ccc(C2=[N+]([O-])c3ccccc3N3CC(C)(C)CN=C23)cc1 has an MIC of 0.125 to 0.5 µg/mL (Prevotella spp.).
CN[C@H](CC(C)C)C(=O)N[C@H]1C(=O)N[C@@H](CC(N)=O)C(=O)N[C@H]2C(=O)N[C@H]3C(=O)N[C@H](C(=O)N[C@H](C(=O)N[C@@H](CCCNC(=N)N)C(N)=O)c4cc(O)cc(O)c4-c4cc3ccc4O)[C@H](O)c3ccc(c(Cl)c3)Oc3cc2cc(c3O[C@@H]2O[C@H](CO)[C@@H](O)[C@H](O)[C@H]2O[C@H]2C[C@](C)(NCc3ccc(OCc4cn(CC(=O)N[C@H](C(=O)N[C@@H](CCN)C(=O)N[C@H]5CCNC(=O)[C@H]([C@@H](C)O)NC(=O)[C@H](CCN)NC(=O)[C@H](CCN)NC(=O)[C@H](CC(C)C)NC(=O)[C@@H](CC(C)C)NC(=O)[C@H](CCN)NC5=O)[C@@H](C)O)nn4)c(OC)c3)[C@H](O)[C@H](C)O2)Oc2ccc(cc2Cl)[C@H]1O has an MIC of 0.01 µM (Enterococcus faecium; VRE vanB).
O[C@]12C=C(c3nccc4c3[nH]c3ccccc34)[C@@H]3CCN(CCCC/C=C\CC1)C[C@@]31C[C@@H]3/C=C\CCCCN3[C@H]12 has an MIC of 0.63 µg/mL (Mycobacterium intracellulare; Alamar Blue; ATCC 23068).
With CC[C@H](C)[C@H](NC(=O)[C@H](C)NC(=O)CNC(=O)[C@H](C)NC(=O)[C@H](CCCCN)NC(=O)[C@H](CO)NC(=O)[C@H](C)NC(=O)[C@H](CCSC)NC(=O)CN)C(=O)N[C@@H](C)C(=O)NCC(=O)N[C@@H](CCCCN)C(=O)N[C@H](C(=O)N[C@@H](C)C(=O)N[C@@H](CCCCN)C(=O)N[C@H](C(=O)N[C@@H](C)C(=O)N[C@@H](CC(C)C)C(=O)N[C@@H](CCCCN)C(=O)N[C@@H](C)C(=O)N[C@@H](CC(C)C)C(N)=O)C(C)C)[C@@H](C)CC the MIC was 10 µg/mL (Escherichia coli; 3538, ampicillin-resistant, minimal salts medium; 18 h, 37 °C).
With CC(=O)N[C@@H](CC(C)C)C(=O)N[C@H]1CSSC[C@@H](C(=O)N2CCC[C@H]2C(N)=O)NC(=O)[C@H]([C@@H](C)O)NC(=O)[C@H](C(C)C)NC(=O)[C@H]([C@@H](C)O)NC(=O)[C@H](CCCCN)NC(=O)[C@H](CC(C)C)NC(=O)[C@H](Cc2ccccc2)NC(=O)[C@H](Cc2ccc(O)cc2)NC(=O)[C@H](CC(C)C)NC(=O)[C@H](CCCCN)NC(=O)[C@H](Cc2ccccc2)NC(=O)[C@H](CCCNC(=N)N)NC(=O)[C@H](CCC(N)=O)NC(=O)[C@H](CC(C)C)NC(=O)[C@H](CCCCN)NC(=O)[C@@H]2CCCN2C(=O)[C@H](CCCCN)NC(=O)[C@H](C(C)C)NC(=O)[C@H](CC(N)=O)NC(=O)[C@H](Cc2ccc(O)cc2)NC(=O)[C@H]([C@@H](C)O)NC1=O the MIC was 5 to 10 µM (Pseudomonas fluorescens; broth dilution; CGMCC strain; 24 h).
With CC[C@H](C)[C@@H]1NC(=O)[C@@H]([C@@H](C)O)NC(=O)CNC(=O)[C@H](CC(=O)O)NC(=O)CNC(=O)[C@H](CC(=O)O)NC(=O)CNC(=O)[C@H]2CCCCN2C(=O)[C@@H](NC(=O)[C@H](CC(=O)O)NC(=O)/C=C/CCCCCCCCCC(C)C)CNC(=O)[C@@H]2CCCN2C1=O the MIC was 32 µg/mL (Enterococcus faecium; broth microdilution; daptomycin-resistant isolate, Mueller-Hinton broth, Mg2+ 10 mg/L; 16 h, added: Ca2+ 1.0 mM).
CSCC[C@H](NC=O)C(=O)N[C@@H](CCCNC(=N)N)C(=O)N[C@H](C(=O)NCC(=O)N[C@@H](CC(N)=O)C(=O)N[C@@H](C)C(=O)N[C@@H](CC(N)=O)C(=O)NCC(=O)N1CCN(c2cc3c(cc2F)c(=O)c(C(=O)O)cn3C2CC2)CC1)[C@@H](C)O gave an MIC of 64 µM (Enterobacter cloacae; clinical isolate).
With CC(C)CCCCCCCCC/C=C/C(=O)N[C@@H](CC(=O)O)C(=O)N[C@H]1CNC(=O)[C@@H]2CCCN2C(=O)[C@H](C(C)C)NC(=O)[C@@H](CN)NC(=O)CNC(=O)[C@H](CC(=O)O)NC(=O)CNC(=O)[C@H](CC(=O)O)NC(=O)[C@H](CC(=O)O)NC(=O)[C@H]2CCCCN2C1=O the MIC was 8 to 16 µg/mL (Staphylococcus aureus; broth microdilution; VISA LIM strain 2, Mueller-Hinton broth, Mg2+ 10 mg/L; 16 h, added: Ca2+ 1.0 mM).
O=c1n(CCNCCOS(=O)(=O)c2ccccc2)c(=O)n(S(=O)(=O)c2ccccc2)c(=O)n1S(=O)(=O)c1ccccc1 has an MIC of 2 µg/mL (Bacillus cereus; microbial growth, broth dilution).
For CC[C@H](C)[C@H](NC(=O)[C@H](CC(=O)O)NC(=O)[C@H](C)NC(=O)[C@@H](N)CO)C(=O)N[C@@H](CO)C(=O)N[C@@H](CC(C)C)C(=O)N[C@@H](CCC(=O)O)C(=O)N[C@@H](CCCNC(=N)N)C(=O)N[C@@H](CC(C)C)C(=O)O, the MIC was 200 µg/mL (Staphylococcus haemolyticus).
With CCCCCCCCCCCCCC(=O)N[C@H]1C(=O)N[C@@H](CN)C(=O)N[C@@H](CO)C(=O)N[C@@H](Cc2ccc(O)cc2)C(=O)O[C@H]1C the MIC was 4 µg/mL (Staphylococcus aureus; SH1000; added: phosphatidylcholine, molar ratio 2).
For N=C(N)NCCC[C@H](NC(=O)[C@H](CCCNC(=N)N)NC(=O)[C@H](Cc1ccccc1)NC(=O)[C@H](CO)NC(=O)[C@H](Cc1ccccc1)NC(=O)[C@H](Cc1c[nH]c2ccccc12)NC(=O)[C@H](Cc1ccccc1)NC(=O)[C@H](CO)NC(=O)[C@H](Cc1ccccc1)NC(=O)[C@H](CCCNC(=N)N)NC(=O)[C@@H](N)CCCNC(=N)N)C(N)=O, the MIC was 128 µM (Lacticaseibacillus rhamnosus; 1.038, probiotic strain; 24 h, 37 °C, tested up to 128 µM).
